Measurements from different studies.
Each line is one published result; not all experiments were run side by side. Several values in a cell are separate wells, animals, samples, runs or records. Numbers after ± are the reported error.
sdiA: Regulatory protein SdiA (sdiA, Escherichia coli, UniProt P07026)
Chain of UniProt P07026 (whole entry, looked up): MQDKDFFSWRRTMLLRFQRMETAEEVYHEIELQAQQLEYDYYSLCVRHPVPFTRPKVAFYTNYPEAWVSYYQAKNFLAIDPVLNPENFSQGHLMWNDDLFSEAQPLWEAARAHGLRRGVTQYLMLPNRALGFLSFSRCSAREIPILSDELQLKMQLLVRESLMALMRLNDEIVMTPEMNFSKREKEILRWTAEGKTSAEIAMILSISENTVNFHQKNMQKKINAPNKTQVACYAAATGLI
lasR: Transcriptional activator protein LasR (lasR, Pseudomonas aeruginosa, UniProt P25084)
Oprm1: Mu-type opioid receptor (Oprm1, Rattus norvegicus, UniProt P33535)
Chain of UniProt P33535 (whole entry, looked up): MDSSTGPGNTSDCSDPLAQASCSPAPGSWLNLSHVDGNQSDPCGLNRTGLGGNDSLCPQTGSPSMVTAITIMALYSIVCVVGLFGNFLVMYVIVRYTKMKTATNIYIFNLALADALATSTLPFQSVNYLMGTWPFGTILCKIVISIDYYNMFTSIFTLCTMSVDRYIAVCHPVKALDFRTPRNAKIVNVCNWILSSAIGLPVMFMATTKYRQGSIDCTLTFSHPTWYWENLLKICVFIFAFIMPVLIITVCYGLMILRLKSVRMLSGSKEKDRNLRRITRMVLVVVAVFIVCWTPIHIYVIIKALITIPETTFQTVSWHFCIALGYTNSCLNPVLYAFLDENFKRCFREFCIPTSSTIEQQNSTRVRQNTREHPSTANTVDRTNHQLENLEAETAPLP
Uncharacterized hydrolase SAUSA300_2518: Uncharacterized hydrolase SAUSA300_2518 (Staphylococcus aureus, UniProt Q2FDS6)
Chain of UniProt Q9H2X3 (whole entry, unmodified, looked up): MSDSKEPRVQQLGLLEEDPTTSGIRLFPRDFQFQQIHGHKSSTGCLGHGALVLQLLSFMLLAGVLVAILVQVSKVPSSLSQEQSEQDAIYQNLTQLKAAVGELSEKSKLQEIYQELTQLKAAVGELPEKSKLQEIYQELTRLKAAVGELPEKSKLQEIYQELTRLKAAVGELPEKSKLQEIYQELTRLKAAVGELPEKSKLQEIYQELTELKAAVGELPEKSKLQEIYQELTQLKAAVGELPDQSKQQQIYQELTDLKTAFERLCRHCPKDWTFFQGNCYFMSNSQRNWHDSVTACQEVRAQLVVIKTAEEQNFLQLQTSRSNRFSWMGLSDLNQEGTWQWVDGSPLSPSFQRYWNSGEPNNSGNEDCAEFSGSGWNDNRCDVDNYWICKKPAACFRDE
Chain of UniProt Q00987 (whole entry, looked up): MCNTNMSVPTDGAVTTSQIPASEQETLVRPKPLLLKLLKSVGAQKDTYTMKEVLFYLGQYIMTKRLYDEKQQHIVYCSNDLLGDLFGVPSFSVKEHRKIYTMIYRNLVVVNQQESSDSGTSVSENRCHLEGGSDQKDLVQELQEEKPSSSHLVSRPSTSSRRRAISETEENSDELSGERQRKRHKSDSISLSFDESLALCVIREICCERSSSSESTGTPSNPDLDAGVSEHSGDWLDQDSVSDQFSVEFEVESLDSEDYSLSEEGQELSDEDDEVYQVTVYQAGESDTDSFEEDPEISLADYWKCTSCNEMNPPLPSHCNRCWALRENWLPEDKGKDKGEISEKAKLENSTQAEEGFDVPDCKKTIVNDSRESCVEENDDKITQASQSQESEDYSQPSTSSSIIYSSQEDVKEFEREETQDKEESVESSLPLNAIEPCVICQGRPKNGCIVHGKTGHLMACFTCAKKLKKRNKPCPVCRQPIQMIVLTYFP
Chain of UniProt Q9Y2J8 (whole entry, looked up): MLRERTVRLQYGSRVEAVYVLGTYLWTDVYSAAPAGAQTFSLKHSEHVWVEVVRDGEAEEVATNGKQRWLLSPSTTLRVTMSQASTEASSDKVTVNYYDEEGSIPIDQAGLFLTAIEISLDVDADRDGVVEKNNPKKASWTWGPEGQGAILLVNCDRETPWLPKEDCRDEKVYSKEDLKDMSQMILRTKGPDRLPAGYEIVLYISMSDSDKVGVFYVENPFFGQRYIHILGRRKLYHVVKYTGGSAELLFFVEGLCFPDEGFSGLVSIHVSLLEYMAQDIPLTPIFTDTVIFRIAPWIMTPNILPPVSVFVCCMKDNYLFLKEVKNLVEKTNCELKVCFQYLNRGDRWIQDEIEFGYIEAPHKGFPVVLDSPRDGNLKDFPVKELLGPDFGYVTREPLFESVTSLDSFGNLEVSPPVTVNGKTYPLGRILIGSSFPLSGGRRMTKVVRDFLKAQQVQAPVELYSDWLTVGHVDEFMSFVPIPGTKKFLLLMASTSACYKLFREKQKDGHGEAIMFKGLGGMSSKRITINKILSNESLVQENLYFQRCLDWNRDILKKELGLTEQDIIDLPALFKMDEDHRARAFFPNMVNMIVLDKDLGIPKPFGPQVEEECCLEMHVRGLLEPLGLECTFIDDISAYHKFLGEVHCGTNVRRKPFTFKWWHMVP
Chain of UniProt P05771 (whole entry, looked up): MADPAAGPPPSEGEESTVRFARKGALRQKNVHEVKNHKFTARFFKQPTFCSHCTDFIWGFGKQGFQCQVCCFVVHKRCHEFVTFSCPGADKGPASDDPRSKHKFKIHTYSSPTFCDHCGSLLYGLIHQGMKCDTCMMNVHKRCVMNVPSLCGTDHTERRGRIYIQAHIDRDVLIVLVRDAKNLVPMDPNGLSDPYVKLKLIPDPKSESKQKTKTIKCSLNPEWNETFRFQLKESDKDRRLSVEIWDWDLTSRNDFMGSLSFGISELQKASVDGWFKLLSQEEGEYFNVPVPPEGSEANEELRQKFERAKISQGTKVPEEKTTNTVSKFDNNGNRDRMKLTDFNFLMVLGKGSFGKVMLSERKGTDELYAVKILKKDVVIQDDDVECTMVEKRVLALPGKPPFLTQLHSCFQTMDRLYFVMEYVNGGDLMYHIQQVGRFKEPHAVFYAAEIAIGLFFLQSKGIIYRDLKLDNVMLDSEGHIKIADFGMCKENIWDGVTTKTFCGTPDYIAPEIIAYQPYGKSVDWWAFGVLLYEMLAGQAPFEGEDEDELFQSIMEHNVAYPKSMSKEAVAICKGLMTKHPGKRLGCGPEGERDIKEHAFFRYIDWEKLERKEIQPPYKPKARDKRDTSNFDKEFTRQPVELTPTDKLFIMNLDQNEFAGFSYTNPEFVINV
Chain of UniProt Q14145 (whole entry, looked up): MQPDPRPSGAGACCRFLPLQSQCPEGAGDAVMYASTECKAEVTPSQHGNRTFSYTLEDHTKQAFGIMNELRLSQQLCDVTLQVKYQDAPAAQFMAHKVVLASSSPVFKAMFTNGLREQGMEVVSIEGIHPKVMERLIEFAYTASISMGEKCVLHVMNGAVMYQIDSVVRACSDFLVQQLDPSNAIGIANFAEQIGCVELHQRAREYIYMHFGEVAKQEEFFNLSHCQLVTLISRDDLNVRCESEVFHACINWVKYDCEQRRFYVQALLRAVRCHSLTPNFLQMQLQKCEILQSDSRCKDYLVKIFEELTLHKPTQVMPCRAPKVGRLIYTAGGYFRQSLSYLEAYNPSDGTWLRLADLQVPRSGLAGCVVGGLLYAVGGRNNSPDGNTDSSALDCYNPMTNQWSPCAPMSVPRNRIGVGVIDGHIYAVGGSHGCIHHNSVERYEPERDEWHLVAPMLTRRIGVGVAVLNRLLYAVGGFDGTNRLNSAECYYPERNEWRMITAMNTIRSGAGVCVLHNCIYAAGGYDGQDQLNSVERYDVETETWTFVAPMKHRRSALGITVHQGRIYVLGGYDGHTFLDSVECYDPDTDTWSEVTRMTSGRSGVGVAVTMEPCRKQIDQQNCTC
Chain of UniProt P68400 (whole entry, looked up): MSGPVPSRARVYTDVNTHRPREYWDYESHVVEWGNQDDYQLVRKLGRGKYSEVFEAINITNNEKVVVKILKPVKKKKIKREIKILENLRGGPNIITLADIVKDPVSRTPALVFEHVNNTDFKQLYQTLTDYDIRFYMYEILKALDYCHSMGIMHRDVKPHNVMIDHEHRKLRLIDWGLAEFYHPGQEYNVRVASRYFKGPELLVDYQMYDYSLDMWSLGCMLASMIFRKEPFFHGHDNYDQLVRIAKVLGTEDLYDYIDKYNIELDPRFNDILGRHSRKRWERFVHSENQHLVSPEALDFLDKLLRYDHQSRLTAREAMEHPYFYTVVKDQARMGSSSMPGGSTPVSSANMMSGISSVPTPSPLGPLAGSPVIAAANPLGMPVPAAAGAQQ

SMILES	target	test	test system	conditions	how to read	measurement	result
CN(/N=C/c1ccccc1C(=O)O)c1nc(-c2ccccc2Cl)cs1	CSNK2A1 (Homo sapiens, UniProt P68400)	enzyme activity, inhibitor		1 µM		inhibition	-24.2%
CCCCCC(=O)CC(=O)NC1CCSC1=O (stereo not drawn)	sdiA					Emax	90%
O=C(CC(=O)N[C@H]1CCOC1=O)Cc1ccccc1	lasR	reporter gene, agonist	Pseudomonas aeruginosa PAO-JP2	100 µM, plasI-LVAgfp reporter	relative to: OdDHL at same concentration	agonist activity	0%
N[C@H](C(=O)N1CCCC1)C1CCN(c2nccc3c(-c4ncc(Cl)cc4Cl)cccc23)CC1	PADI2 (Homo sapiens, UniProt Q9Y2J8)	enzyme activity		3.84 µM, high-affinity site, with: Ca2+ 1.5 mM		kcat	0.84 s⁻¹ and 0.766 s⁻¹
CS(C)(=O)=Nc1ccc(-c2ccc(-c3nc4cc(O[C@@H]5CO[C@H]6[C@@H]5OC[C@H]6O)[nH]c4cc3F)cc2)cc1	SRPK3 (Homo sapiens, UniProt Q9UPE1)	enzyme activity, inhibitor		10 µM		inhibition	-12%
CN(C)[C@H]1C[C@@]23CC[C@@]4(O2)C(=CC[C@]2(C)[C@@H](c5ccc6ccncc6c5)CC[C@H]24)C=C3[C@@H](O)[C@@H]1O	LATS2 (Homo sapiens, UniProt Q9NRM7)	ATP probe labelling, inhibitor, KiNativ profiling		0.1 µM		inhibition	-0.8%
C#CCCCCOc1ccc2c(c1)CCCN2C(=O)CCl	TSPO (Homo sapiens, UniProt P30536)	mass spectrometry profiling	H460 cell lysate	100 µM over 10 µM, UniProt P30536	relative to: high over low concentration	reactivity ratio	1.43
COCC1CCCCN1C(=O)n1cc(C(O)(c2ccccc2)c2ccccc2)nn1 (stereo not drawn)	Dipeptidyl peptidase 2 (Dpp7, Mus musculus, UniProt Q9ET22)	probe labelling, inhibitor, competitive ABPP-SILAC, refers to: Dpp7	mouse T cells	concentration not given, 4 h, protein level	relative to: treated over DMSO cells, lower = stronger inhibition	SILAC activity ratio	1.31
CCCCCC(=O)CC(=O)N[C@H]1CCOC1=O	lasR	reporter gene, antagonist			relative to: IC50 PAO-JP2 over E. coli JLD271	potency ratio	71
CC[C@@H](C)[C@@H]1CN([C@H](Cc2ccc3ccccc3c2)CN2CCC[C@H]2CN2CCNC[C@@H]2Cc2ccc3ccccc3c2)CCN1CCc1ccc(Cl)c(Cl)c1	Oprm1	radioligand binding	rat brain membranes	500 nM, pH 7.5, 25 °C, with: 0.87 nM [3H]DAMGO		remaining binding	104 ± 7.93%
O=C(Cc1cccc(C(F)(F)F)c1)N[C@H]1CCOC1=O	sdiA					Emax	94.9%
CN1CCCN(C(=O)c2ccc(S(=O)(=O)F)cc2)c2ccccc21	Uncharacterized hydrolase SAUSA300_2518	enzyme activity, inhibitor, fluorogenic substrate		0.5 µM		remaining activity	113% and 112%
O=C(CCc1ccc(C(F)(F)F)cc1)N[C@H]1CCOC1=O	lasR	reporter gene, agonist			relative to: EC50 PAO-JP2 over E. coli JLD271	potency ratio	220
CC(C)CC(O)(CC(C)C)c1cn(C(=O)N2CCCC2)nn1	Dipeptidyl peptidase 8 (Dpp8, Mus musculus, UniProt Q80YA7)	probe labelling, inhibitor, refers to: Dpp8	mouse, brain	i.p., 0.8 mg/kg, 4 h, protein level	relative to: treated over vehicle mice, lower = stronger inhibition	activity ratio-of-ratios	0.67
O=C(Cc1ccc(Br)cc1)N[C@H]1CCOC1=O	lasR	reporter gene, antagonist			relative to: IC50 PAO-JP2 over E. coli JLD271	potency ratio	33
COC(=O)[C@@H](NC(=O)c1nn(Cc2ccc(F)cc2)c2cc(OCCCCNC(=N)N)ccc12)C(C)(C)C	Cannabinoid receptor 1, with Gi3 (CNR1, Homo sapiens, UniProt P21554)	GTP turnover, agonist, refers to: Gi3 Gα subtype				maximal efficacy	144%
CCOC(=O)[C@@H]1Cc2c(cc([N+](=O)[O-])cc2[N+](=O)[O-])[C@H](O)[C@]12C(=O)Nc1ccc(Br)cc12	RAF1 (Homo sapiens, UniProt P04049)	binding, competition with immobilised ligand		0.1 µM		remaining binding	93%

SMILES	target	test	test system	conditions	how to read	measurement	result
CC(C)[C@H]1NC(=O)C[C@H]2/C=C/CCSSC[C@@H](NC1=O)C(=O)N[C@H](Cc1cccc3ccccc13)C(=O)NCC(=O)O2	EPHA4 (Homo sapiens, UniProt P54764)	enzyme activity, inhibitor		10 µM		inhibition	1.4%
O=C(Nc1ccncc1)c1ccccc1OS(=O)(=O)F	Uncharacterized hydrolase SAUSA300_2518	enzyme activity, inhibitor, fluorogenic substrate		5 µM		remaining activity	51.2% and 51.3% and 49.5%
Cc1cc(C)cc(COc2cc3c(cc2OCc2cc(C)cc(C)c2)C2CC(O)(Cc4cn(CCOCCOCCOCCNc5cccc6c5C(=O)N(C5CCC(=O)NC5=O)C6=O)nn4)CC(C)N2CC3)c1 (racemic)	Rab GDP dissociation inhibitor beta (Homo sapiens, UniProt P50395)	degrader, Western blot	PC-3	2 µM, 24 h		degradation	6%
O=C1NC(=O)c2c1c1cc(F)c[n+]3c1c1c2c2cc(O)ccc2[n]1[Ru-4]312([N]=C=S)[S+]3CC[S+]1CC[S+]2CC3 (stereo not drawn)	FLT3 (Homo sapiens, UniProt P36888)	enzyme activity		100 nM, human enzyme, with: 10 µM ATP	relative to: untreated	remaining activity	5%
CC#CC(=O)NC[C@H](NC(=O)[C@H](CC1CCCCC1)NC(=O)[C@H](CCC(N)=O)NC(C)=O)C(=O)N[C@@H](CC(C)C)C(=O)N[C@@H](Cc1ccccc1)C(=O)O	Beta sliding clamp (Escherichia coli, UniProt P0A988, H175G)	isothermal titration calorimetry		25 °C		-TΔS	0.04 kcal/mol
OC[C@H]1CNCCN1C[C@@H]1CCCN1C[C@@H](Cc1ccc2ccccc2c1)N1CCN(CCC23CC4CC(CC(C4)C2)C3)[C@H](Cc2ccc(O)cc2)C1	Oprm1	radioligand binding	rat brain membranes	500 nM, pH 7.5, 25 °C, with: 0.87 nM [3H]DAMGO		remaining binding	101 ± 4.2%
[CH3][Ti+2][O]C(=O)c1ccc([S][Au][PH](c2ccccc2)(c2ccccc2)c2ccccc2)cc1.c1cc[cH-]c1.c1cc[cH-]c1	Protein kinase C beta type, isoform beta-II (PRKCB, Homo sapiens, UniProt P05771)	kinase activity		1 µM, with: ATP 10 µM		remaining activity	101% and 97.7%
N=C(N)NCc1cn([C@@H]2[C@@H](OCCCl)O[C@H](CO)[C@@H](O)[C@@H]2O)nn1	C-type lectin domain family 4 member M, extracellular domain (CLEC4M, Homo sapiens, UniProt Q9H2X3)	isothermal titration calorimetry				-TΔS	5 kcal/mol and 4.09 kcal/mol and 4.88 kcal/mol
CC(C)C[C@@H]1NC(=O)[C@H](C(C)C)NC(=O)[C@H](CCC(=O)O)NC(=O)CNC(=O)[C@H]([C@@H](C)O)NC(=O)[C@H](CCC(=O)O)NC(=O)[C@H](CCC(=O)O)NC(=O)[C@H](CC(=O)O)NC(=O)[C@H](C(C)C)NC(=O)[C@H]([C@@H](C)O)NC(=O)CNC(=O)[C@H](CC(=O)O)NC(=O)[C@@H]2CCCN2C1=O	KEAP1 (Homo sapiens, UniProt Q14145)	Keap1-Nrf2 binding, inhibitor, competitive FP		0.0061 µM, 30 min, with: Nrf2 peptide probe	lower = stronger inhibition	fluorescence polarization	1.13 a.u. and 1.06 a.u.
CN(C)CCCSC(=S)N1CCN(C(=O)/C=C/c2coc3ccccc3c2=O)CC1	Nucleoprotein (N, Tomato spotted wilt virus, UniProt P25999, R94A/Y184A)	binding, microscale thermophoresis		125 µM	dose series	MST response	1.09 a.u.
CC[C@H](C)[C@H](NC(=O)[C@H](CCCNC(=N)N)NC(=O)[C@H](CCCNC(=N)N)NC(=O)[C@H](CC(C)C)NC(=O)[C@H](Cc1ccccc1)NC(=O)CNC(=O)CNC(=O)[C@@H](N)Cc1ccc(O)cc1)C(=O)N[C@@H](CCCNC(=N)N)C(=O)N1CCC[C@H]1C(=O)N[C@@H](CCCCN)C(=O)N[C@@H](CC(C)C)C(=O)N[C@@H](CCCCN)C(=O)O	GPR139 (Homo sapiens, UniProt Q6DWJ6)	GαoA activation, agonist, BRET	HEK293T/17	40 µM		Emax	116%
COc1ccccc1-c1n[nH]c2nc(N[C@H]3CC[C@H](NS(=O)(=O)CC(C)C)CC3)ncc12	cyclin 9 (Leishmania donovani, UniProt A0A2D1QVA3)	competitor, bead pull-down competition	Leishmania donovani extract	0.4 µM	relative to: vehicle	remaining binding	8%
CCNC(=S)NN=Cc1c2ccccc2cc2ccccc12.Cc1ccc(C(C)C)cc1.[Cl-].[Cl-].[Ru+2]	Albumin (ALB, Homo sapiens, UniProt P02768)	modified Stern-Volmer		301 K		binding constant	9.82 ± 3.42 10⁴ M⁻¹
C[C@H](NCc1ccc(-c2ccc(C(F)(F)F)cc2)cc1)C(N)=O	MAPK3 (Homo sapiens, UniProt P27361)	cell-free assay, competition with immobilised ligand		1 µM		inhibition	4%
CC[C@H](C)[C@@H]1NC(=O)[C@H](CC(C)C)NC(=O)CNC(=O)[C@H](CCCNC(=N)N)NC(=O)[C@H](Cc2c[nH]c3ccccc23)NC(=O)[C@H](CCSC)NC(=O)[C@H](CO)NC(=O)[C@H](CCC(=O)O)NC(=O)[C@H](Cc2ccccc2)NC(=O)[C@H](CC(=O)O)NC(=O)[C@H]([C@@H](C)O)NC(=O)CNC(=O)[C@H](CCC(=O)O)NC(=O)[C@H]([C@@H](C)O)NC(=O)CNC(=O)[C@H](CC(=O)O)NC1=O	MDM2 (Homo sapiens, UniProt Q00987)	MDM2-ligand binding, inhibitor, AlphaLISA competition		100 µM, with: GST-tagged MDM2 ligand	lower = stronger inhibition	AlphaLISA signal	991 a.u. and 1010 a.u. and 1000 a.u.
CCCCC/C=C\C/C=C\C/C=C\C/C=C\CCCC(=O)NCCc1ccc(O)c(O)c1	Trpv1 (Mus musculus, UniProt Q704Y3, S513A)	ion current, agonist, whole-cell patch clamp			relative to: 3 mM 2-APB current	maximal open probability	0.92 ± 0.05

A few entries again:
SMILES	target	test	test system	conditions	how to read	measurement	result
CC(C)CC(O)(CC(C)C)c1cn(C(=O)N2CCCC2)nn1	Dipeptidyl peptidase 8 (Dpp8, Mus musculus, UniProt Q80YA7)	probe labelling, inhibitor, refers to: Dpp8	mouse, brain	i.p., 0.8 mg/kg, 4 h, protein level	relative to: treated over vehicle mice, lower = stronger inhibition	activity ratio-of-ratios	0.67
CC(C)[C@H]1NC(=O)C[C@H]2/C=C/CCSSC[C@@H](NC1=O)C(=O)N[C@H](Cc1cccc3ccccc13)C(=O)NCC(=O)O2	EPHA4 (Homo sapiens, UniProt P54764)	enzyme activity, inhibitor		10 µM		inhibition	1.4%
COC(=O)[C@@H](NC(=O)c1nn(Cc2ccc(F)cc2)c2cc(OCCCCNC(=N)N)ccc12)C(C)(C)C	Cannabinoid receptor 1, with Gi3 (CNR1, Homo sapiens, UniProt P21554)	GTP turnover, agonist, refers to: Gi3 Gα subtype				maximal efficacy	144%
[CH3][Ti+2][O]C(=O)c1ccc([S][Au][PH](c2ccccc2)(c2ccccc2)c2ccccc2)cc1.c1cc[cH-]c1.c1cc[cH-]c1	Protein kinase C beta type, isoform beta-II (PRKCB, Homo sapiens, UniProt P05771)	kinase activity		1 µM, with: ATP 10 µM		remaining activity	101% and 97.7%
CN(C)[C@H]1C[C@@]23CC[C@@]4(O2)C(=CC[C@]2(C)[C@@H](c5ccc6ccncc6c5)CC[C@H]24)C=C3[C@@H](O)[C@@H]1O	LATS2 (Homo sapiens, UniProt Q9NRM7)	ATP probe labelling, inhibitor, KiNativ profiling		0.1 µM		inhibition	-0.8%
C[C@H](NCc1ccc(-c2ccc(C(F)(F)F)cc2)cc1)C(N)=O	MAPK3 (Homo sapiens, UniProt P27361)	cell-free assay, competition with immobilised ligand		1 µM		inhibition	4%
